Published values gathered from unrelated publications.
A part holds a random share of what one study measured. Positions count from the first letter of the parent shown.

Set 1 — technique: aptamer microarray, sandwich; form: DNA with 2'F-ANA; matrix: in vitro; concentration: 200 nM; together with: Cy3 exosite-II aptamer, 400 nM; direction: higher = stronger binding; oligonucleotide: GGTTGGTGTGGTTGG
Target: Prothrombin, mature alpha-thrombin (F2, Homo sapiens, UniProt P00734)
Setting: whole 15-mer aptamer, many near background
Under “mean fluorescence intensity”, `2'F-ANA at 2 3 4 7 8 9 10 13` is recorded as 234 a.u.
Under “mean fluorescence intensity”, `2'F-ANA at 1 2 6 7 8 10 12 15` is recorded as 65.6 a.u.
`2'F-ANA at 1 2 7 8 9 10 11 13` — result for “mean fluorescence intensity”: 58.3 a.u.
For `2'F-ANA at 1 2 5 10 13`, “mean fluorescence intensity” read 44.6 a.u.
`2'F-ANA at 2 3 6 7 11 13 14 15` — result for “mean fluorescence intensity”: 342 a.u.
For `2'F-ANA at 1 4 6 11 12 14 15`, “mean fluorescence intensity” read 74.9 a.u.
For `2'F-ANA at 2 4 5 9 11 12`, “mean fluorescence intensity” read 127 a.u.
`2'F-ANA at 1 3 7 8 9 12 13 14 15`: “mean fluorescence intensity” 140 a.u.
`2'F-ANA at 2 5 6 9 10 11 13` — result for “mean fluorescence intensity”: 48 a.u.
`2'F-ANA at 1 4 5 6 8 9 11 12 15` — result for “mean fluorescence intensity”: 79.8 a.u.
`2'F-ANA at 7 11 12 15`: “mean fluorescence intensity” 810 a.u.
`2'F-ANA at 1 2 3 6 7 12 13`: “mean fluorescence intensity” 289 a.u.
`2'F-ANA at 1 2 3 5 8 11 12`: “mean fluorescence intensity” 115 a.u.
`2'F-ANA at 1 5 7 8 9 10`: “mean fluorescence intensity” 46.5 a.u.
`2'F-ANA at 1 4 5 6 10 11 13`: “mean fluorescence intensity” 47.6 a.u.
`2'F-ANA at 2 5 8 10 13 14` — result for “mean fluorescence intensity”: 48.1 a.u.

Set 2 — technique: protein-binding microarray; form: double-stranded DNA, one strand shown; matrix: in vitro; concentration: 0.8 µM; setting: whole 60-bp probe, no competitor; direction: higher = stronger binding; all sequences stand within: … GTCTTGATTCGCTTGACGCTGCTG
Target: Centromere-binding protein 1, full length, N-terminal tag (CBF1, Saccharomyces cerevisiae, UniProt P17106, residues 1-351)
Chain of UniProt P17106 (whole entry, looked up): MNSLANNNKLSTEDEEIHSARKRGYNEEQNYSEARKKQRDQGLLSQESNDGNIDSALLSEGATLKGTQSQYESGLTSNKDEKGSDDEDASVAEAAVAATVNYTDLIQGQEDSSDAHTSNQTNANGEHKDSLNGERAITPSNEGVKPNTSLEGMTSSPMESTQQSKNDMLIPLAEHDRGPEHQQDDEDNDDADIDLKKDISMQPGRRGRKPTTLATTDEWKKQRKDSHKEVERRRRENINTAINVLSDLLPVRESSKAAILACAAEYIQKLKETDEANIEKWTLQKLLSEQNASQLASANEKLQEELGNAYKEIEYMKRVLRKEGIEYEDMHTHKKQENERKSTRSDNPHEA
With `CTAGAACTCCTTTGCTGCGTGGCGTATTCCTCTTTC` the fluorescence intensity was 503 a.u.
For `GAAACGTTACGGCACACCGTGATGTACCCGCATTAG`, the fluorescence intensity was 531 a.u.
`TGTACGAAGCTATCCTCCGTGACTATAGTAGTTAGG` gave a fluorescence intensity of 546 a.u.
The fluorescence intensity of `GAAGCAAGCAAACATGGTGTGGGGAAGGTGAGGTAG` is reported as 519 a.u.
The fluorescence intensity of `CCTAACTACTATAACCTGTGCATATAGCTTCGTACA` is reported as 493 a.u.
For `CCTAACTACTATATTCACATGGCATAGCTTCGTACA`, the fluorescence intensity was 607 a.u.
`CTACGGATTCCCGAGCACATGGAGTCGCTGAACTTC` has a fluorescence intensity of 628 a.u.
With `GAAGGTTTCCTTCATCTCCTGTATATGGCCCTTTAG` the fluorescence intensity was 519 a.u.
`GAATTTGCTCTCGATCATCAGAGAACAGTAGAATAG` gave a fluorescence intensity of 602 a.u.
The fluorescence intensity of `GAATATGTAATGGGTCATGATAAATTCCGAGATTAG` is reported as 537 a.u.
The fluorescence intensity of `GAACCAGACAAGAGTCAGGTGACGCTGCAGATGTAG` is reported as 4850 a.u.
With `CTATATAGTTTCGGTCACGGTAGTCTCTAATTATTC` the fluorescence intensity was 720 a.u.

Set 3 — organism: Saccharomyces cerevisiae; effect on: binding; technique: yeast competitive growth sequencing; form: peptide; strain: cyclin D1-Cln2 strain; matrix: peptide tiling library; setting: pooled screen; direction: direction not given
`LRRQLSFSED` gave an enrichment score of 0.182.
For `RKLHFEDEVT`, the enrichment score was 2.87.
`VSRNLRSSLKSSLHTL` has an enrichment score of -2.71.
The enrichment score of `ARKRLELGNLGNPQ` is reported as -1.16.
`NNIRKALSFDNRGEEH` has an enrichment score of -0.817.
`SCCKRKLVVGNGPEGP` has an enrichment score of -1.31.
With `RRVLCFDS` the enrichment score was -1.34.
For `KVKRRLDLDIDGLQKE`, the enrichment score was -0.402.
`LRRKLFLDGNGSIS` gave an enrichment score of -1.76.
`GFGFLLFICKLTF` has an enrichment score of -0.941.

Set 4 — technique: DHFR PCA, deep sequencing; matrix: yeast; together with: (+)-ABA 0.032 µM; baseline: wild-type fitted maximum; direction: higher = stronger binding
Target: ABI1, truncated, D143A, DHFR fusion (Arabidopsis thaliana)
Setting: methotrexate growth selection, single substitutions
Starting sequence: PYL1, truncated, DHFR fusion (Arabidopsis thaliana); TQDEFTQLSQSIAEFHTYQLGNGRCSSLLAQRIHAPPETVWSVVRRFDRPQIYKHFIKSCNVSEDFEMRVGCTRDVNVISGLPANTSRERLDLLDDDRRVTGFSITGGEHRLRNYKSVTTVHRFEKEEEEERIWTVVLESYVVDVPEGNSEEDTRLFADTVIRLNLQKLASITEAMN
For `G102S`, “relative binding score” read 6.91%.
Under “relative binding score”, `A30N` is recorded as -3.75%.
`R45C` — result for “relative binding score”: 1.93%.
`T120V` — result for “relative binding score”: -2.55%.
For `K54G`, “relative binding score” read -2.13%.
For `N165W`, “relative binding score” read 6.48%.
`A30V` — result for “relative binding score”: 13.3%.
Under “relative binding score”, `N149L` is recorded as 22%.
For `A175N`, “relative binding score” read 20.3%.
For `I105H`, “relative binding score” read -9.68%.
`R69F` — result for “relative binding score”: -5.76%.
`E14F`: “relative binding score” -4.1%.
`Q51I`: “relative binding score” -8.75%.
`L93P`: “relative binding score” 1.38%.
For `L20K`, “relative binding score” read 37.9%.
`E129T` — result for “relative binding score”: 28.6%.
`N85P` — result for “relative binding score”: 12.4%.
For `L166C`, “relative binding score” read 0.376%.
For `D75W`, “relative binding score” read 17.3%.
